# Measurements pooled from the literature.
# Protocols differ between the studies behind these lines.
# Target: SRSF protein kinase 2 (SRPK2, Homo sapiens, UniProt P78362)
Compound,read-out,action,technique,concentration,baseline,endpoint,result
CNC(=O)C[C@H](Cc1ccc(C#N)cc1)NC(=O)c1cc(-c2ccc(CN[C@H](C)c3ccc(C)cc3)o2)ccc1Cl,enzyme activity,inhibitor,,1 µM,,activity vs control,104%
COc1c(Cl)cccc1Nc1c(-c2ccncc2C#C[C@@]2(C)CCCN2C(=O)/C=C/CN(C)C)[nH]c2c1C(=O)NCC2,binding,,competition with immobilised ligand,3 µM,,remaining binding,81%
COc1cccc(NC(=O)Nc2ccccc2O)c1,enzyme activity,inhibitor,FRET,10 µM,,inhibition,-0.9%
Cc1ccc(-c2c(/C=C(\C#N)C(=O)NC(C)C)n(CCCO)c3ncnc(N)c23)cc1,cell-free assay,,competition with immobilised ligand,1 µM,,remaining binding,100%
Cc1cccc(O[C@H]2CCC[C@@H](C(C)CNCc3ccncc3)C2)c1 (relative stereo),enzyme activity,inhibitor,,10 µM,,inhibition,-4%
Cc1nc2c(F)cc(-c3nc(Nc4ccc(CNC(=O)CCCCCCC(=O)NO)cc4)ncc3F)cc2n1C(C)C,enzyme activity,inhibitor,,1 µM,,inhibition,48%
COc1cc(Nc2nc(C)cc(-c3cnn4nc(OC)ccc34)n2)cc(C(F)(F)F)c1,binding,,competition with immobilised ligand,1 µM,,remaining binding,100%
O=C(Cc1ccc(OCc2ccccc2)cc1)NC1(C(=O)O)CCN(C(=O)c2ccc(-c3cccc(Cl)c3)cc2)CC1,enzyme activity,inhibitor,,10 µM,,activity vs control,104%
Nc1ncc2c(n1)-c1c([nH]c3ccc(C4=CCOCC4)cc13)CCC2,binding,,competition with immobilised ligand,1 µM,,remaining binding,100%
C=CC(=O)Nc1cccc(-c2cnc3[nH]cc(C(=O)NC(C)(C)C)c3n2)c1,enzyme activity,inhibitor,,0.1 µM,,inhibition,2%
CN1CC[C@@H](COc2cnc(C#N)cc2-c2ccn3nc(NC(=O)C4CC4)cc3c2)C1,enzyme activity,inhibitor,,1 µM,,inhibition,12%
CN1CCN(Cc2ccc(-c3ccc(CO[C@H]4CCC[C@@H]4NC(=O)c4cc(-c5cnn(C)c5)cnc4N)cc3)cc2)CC1,enzyme activity,inhibitor,,0.1 µM,,inhibition,-5%
CN(C(=O)N(C)c1ccc(C#N)cc1)c1ccccc1,enzyme activity,inhibitor,FRET,10 µM,,inhibition,0.4%
NC(=O)C[C@H]1CCc2sc3ncnc(O[C@H]4CC[C@H](N5CCOCC5)CC4)c3c21,enzyme activity,inhibitor,,10 µM,,inhibition,2%
N#Cc1ccc(NC(=O)Nc2ccccc2O)cc1,enzyme activity,inhibitor,FRET,10 µM,,inhibition,18%
CNC1C[S+]2CC[S+]3CC[S+](C1)[Ru-4]321([N]=C=S)[n]2c3ccc(OC)cc3c3c4c(c5cc(F)c[n+]1c5c32)C(=O)NC4=O (stereo not shown),,,KinomeScan,0.1 µM,untreated,remaining binding,82%
O=C(Nc1cccc(C(F)(F)F)c1)Nc1ccccc1O,enzyme activity,inhibitor,FRET,10 µM,,inhibition,0.6%
C=CC(=O)N1CCCC(n2c(=O)c3ncccc3n(Cc3ccc(Oc4ccccc4)cc3)c2=O)C1 (stereo not shown),cell-free assay,,competition with immobilised ligand,1 µM,,remaining binding,98%
COc1c(OCCCN2CCOCC2)ccc2c1N=C(NC(=O)c1cnc(N)nc1)N1CCN=C21,kinase activity,inhibitor,,1 µM,untreated control,remaining activity,125%

# Some of these lines once more:
Compound,read-out,action,technique,concentration,baseline,endpoint,result
Cc1cccc(O[C@H]2CCC[C@@H](C(C)CNCc3ccncc3)C2)c1 (relative stereo),enzyme activity,inhibitor,,10 µM,,inhibition,-4%
N#Cc1ccc(NC(=O)Nc2ccccc2O)cc1,enzyme activity,inhibitor,FRET,10 µM,,inhibition,18%
